Assay results from different studies.
Each line is one published result; not all experiments were run side by side. ± gives the spread as reported.
Beta-lactamase CTX-M-27: Beta-lactamase CTX-M-27 (Escherichia coli, UniProt Q840M4)
Sequence of UniProt Q07741 (whole entry, looked up): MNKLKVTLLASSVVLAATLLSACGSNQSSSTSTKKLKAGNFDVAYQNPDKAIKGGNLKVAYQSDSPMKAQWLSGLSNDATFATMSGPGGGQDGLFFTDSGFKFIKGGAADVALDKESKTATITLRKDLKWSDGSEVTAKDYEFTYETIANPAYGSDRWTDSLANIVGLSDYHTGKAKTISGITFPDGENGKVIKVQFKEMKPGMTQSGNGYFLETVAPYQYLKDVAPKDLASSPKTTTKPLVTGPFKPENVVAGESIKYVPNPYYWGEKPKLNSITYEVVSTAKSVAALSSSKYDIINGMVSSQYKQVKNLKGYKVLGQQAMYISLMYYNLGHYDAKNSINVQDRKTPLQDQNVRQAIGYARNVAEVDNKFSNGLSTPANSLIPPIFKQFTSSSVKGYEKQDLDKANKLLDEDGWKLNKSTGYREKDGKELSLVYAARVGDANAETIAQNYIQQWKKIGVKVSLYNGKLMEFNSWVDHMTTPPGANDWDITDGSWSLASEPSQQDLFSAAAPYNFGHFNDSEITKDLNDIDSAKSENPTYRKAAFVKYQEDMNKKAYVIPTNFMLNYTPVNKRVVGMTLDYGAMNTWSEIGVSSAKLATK
Sequence of UniProt Q09472 (whole entry, unmodified, looked up): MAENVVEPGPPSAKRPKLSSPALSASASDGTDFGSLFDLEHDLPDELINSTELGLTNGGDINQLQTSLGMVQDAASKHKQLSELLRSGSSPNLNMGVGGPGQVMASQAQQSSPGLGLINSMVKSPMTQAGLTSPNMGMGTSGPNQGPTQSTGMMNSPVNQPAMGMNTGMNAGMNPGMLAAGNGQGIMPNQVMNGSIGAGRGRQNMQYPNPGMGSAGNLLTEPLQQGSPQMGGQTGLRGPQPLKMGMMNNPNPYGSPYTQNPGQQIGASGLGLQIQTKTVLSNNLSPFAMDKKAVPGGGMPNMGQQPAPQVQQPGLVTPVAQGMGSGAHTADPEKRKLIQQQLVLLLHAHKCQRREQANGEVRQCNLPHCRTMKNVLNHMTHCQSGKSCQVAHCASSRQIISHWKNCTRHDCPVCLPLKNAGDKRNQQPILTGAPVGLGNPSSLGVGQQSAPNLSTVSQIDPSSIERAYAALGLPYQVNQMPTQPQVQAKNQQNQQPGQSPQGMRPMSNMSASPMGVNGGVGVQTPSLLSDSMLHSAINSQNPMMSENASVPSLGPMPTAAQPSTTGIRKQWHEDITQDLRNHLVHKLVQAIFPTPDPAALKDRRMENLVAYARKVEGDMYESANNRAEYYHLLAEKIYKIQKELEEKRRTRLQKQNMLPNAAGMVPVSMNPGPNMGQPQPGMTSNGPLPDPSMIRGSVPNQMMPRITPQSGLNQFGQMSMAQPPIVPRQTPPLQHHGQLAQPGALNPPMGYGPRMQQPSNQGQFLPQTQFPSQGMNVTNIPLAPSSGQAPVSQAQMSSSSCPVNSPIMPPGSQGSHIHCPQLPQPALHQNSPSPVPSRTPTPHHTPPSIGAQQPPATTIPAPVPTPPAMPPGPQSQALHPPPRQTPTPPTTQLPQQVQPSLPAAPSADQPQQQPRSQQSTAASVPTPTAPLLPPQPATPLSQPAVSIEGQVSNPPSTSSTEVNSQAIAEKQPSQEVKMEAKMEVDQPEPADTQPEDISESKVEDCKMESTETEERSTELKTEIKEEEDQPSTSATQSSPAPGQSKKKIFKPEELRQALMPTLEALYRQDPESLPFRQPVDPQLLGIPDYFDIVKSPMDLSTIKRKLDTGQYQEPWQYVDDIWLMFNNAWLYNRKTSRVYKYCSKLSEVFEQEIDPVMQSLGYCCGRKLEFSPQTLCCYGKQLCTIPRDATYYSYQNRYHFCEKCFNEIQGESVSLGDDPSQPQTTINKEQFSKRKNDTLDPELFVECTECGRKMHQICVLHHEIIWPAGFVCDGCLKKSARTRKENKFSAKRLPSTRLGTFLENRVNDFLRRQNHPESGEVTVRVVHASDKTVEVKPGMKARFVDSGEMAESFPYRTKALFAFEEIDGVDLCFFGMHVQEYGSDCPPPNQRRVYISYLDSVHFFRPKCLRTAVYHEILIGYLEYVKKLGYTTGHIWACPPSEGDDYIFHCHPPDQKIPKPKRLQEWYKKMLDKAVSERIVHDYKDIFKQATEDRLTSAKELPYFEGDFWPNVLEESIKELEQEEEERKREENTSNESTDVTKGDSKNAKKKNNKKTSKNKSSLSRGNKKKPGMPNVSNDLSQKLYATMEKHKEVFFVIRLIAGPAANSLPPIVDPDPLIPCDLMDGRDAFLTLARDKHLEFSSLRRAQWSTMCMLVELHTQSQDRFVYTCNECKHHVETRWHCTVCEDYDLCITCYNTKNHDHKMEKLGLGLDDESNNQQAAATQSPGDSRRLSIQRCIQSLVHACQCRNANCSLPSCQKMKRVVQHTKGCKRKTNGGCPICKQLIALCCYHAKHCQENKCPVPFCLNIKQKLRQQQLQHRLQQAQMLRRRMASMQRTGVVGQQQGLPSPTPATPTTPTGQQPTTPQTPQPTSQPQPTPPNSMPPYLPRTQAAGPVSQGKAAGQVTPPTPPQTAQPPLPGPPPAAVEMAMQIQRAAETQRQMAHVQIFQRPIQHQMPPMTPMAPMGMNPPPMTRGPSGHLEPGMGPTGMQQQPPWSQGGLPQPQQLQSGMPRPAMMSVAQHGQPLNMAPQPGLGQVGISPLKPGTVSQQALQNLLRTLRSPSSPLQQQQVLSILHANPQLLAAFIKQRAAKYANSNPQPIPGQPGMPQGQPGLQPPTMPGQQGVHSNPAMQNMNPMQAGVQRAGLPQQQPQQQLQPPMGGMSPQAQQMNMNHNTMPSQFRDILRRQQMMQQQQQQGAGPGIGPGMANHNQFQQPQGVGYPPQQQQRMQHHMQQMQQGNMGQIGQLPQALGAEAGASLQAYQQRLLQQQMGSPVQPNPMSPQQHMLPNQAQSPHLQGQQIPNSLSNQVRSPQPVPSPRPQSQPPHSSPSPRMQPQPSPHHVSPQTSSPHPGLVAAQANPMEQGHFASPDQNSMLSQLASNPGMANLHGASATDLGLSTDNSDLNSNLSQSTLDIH
Sequence of UniProt Q8JGN5 (whole entry, looked up): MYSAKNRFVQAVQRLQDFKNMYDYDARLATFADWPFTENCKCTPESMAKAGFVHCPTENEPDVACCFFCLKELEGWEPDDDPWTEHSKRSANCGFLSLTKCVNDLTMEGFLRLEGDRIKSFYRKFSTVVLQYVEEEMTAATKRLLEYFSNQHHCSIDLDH
Sequence of UniProt Q9HB29 (whole entry, looked up): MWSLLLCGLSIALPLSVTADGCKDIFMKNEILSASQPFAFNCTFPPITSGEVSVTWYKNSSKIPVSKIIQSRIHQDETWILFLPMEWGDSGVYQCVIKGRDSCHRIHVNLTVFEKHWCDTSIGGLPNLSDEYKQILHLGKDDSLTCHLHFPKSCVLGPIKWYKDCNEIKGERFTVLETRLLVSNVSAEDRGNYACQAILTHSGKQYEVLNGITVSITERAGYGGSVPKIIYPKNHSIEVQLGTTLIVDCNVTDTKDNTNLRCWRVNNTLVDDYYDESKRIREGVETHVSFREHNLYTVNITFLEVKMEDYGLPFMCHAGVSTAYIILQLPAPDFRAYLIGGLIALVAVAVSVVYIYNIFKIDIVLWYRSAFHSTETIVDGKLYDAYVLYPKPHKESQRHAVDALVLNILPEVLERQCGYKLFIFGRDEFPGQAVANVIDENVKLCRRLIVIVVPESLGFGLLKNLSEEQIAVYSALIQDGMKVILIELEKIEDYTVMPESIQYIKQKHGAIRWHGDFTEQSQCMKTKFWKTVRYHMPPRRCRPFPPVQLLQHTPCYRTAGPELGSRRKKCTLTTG
Sequence of UniProt Q99828 (whole entry, looked up): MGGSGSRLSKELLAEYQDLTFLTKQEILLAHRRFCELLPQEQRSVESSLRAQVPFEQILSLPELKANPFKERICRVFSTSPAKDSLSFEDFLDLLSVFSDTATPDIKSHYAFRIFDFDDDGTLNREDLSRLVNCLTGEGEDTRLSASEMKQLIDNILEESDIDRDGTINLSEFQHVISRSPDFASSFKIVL
Sequence of UniProt Q9Y237 (whole entry, looked up): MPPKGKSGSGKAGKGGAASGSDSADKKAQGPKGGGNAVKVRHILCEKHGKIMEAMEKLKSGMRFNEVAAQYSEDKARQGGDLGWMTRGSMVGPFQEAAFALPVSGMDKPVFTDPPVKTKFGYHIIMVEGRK
Sequence of UniProt P02699 (whole entry, looked up): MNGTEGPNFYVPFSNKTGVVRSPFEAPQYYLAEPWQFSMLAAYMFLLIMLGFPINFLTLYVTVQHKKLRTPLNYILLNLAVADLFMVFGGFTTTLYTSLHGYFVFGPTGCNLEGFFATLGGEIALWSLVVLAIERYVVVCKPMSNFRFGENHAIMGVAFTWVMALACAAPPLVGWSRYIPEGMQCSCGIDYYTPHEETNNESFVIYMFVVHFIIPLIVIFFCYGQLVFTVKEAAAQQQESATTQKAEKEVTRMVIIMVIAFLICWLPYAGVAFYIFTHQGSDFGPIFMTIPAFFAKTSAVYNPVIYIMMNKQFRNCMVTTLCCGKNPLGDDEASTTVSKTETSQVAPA
Sequence of UniProt Q9BYG8 (whole entry, looked up): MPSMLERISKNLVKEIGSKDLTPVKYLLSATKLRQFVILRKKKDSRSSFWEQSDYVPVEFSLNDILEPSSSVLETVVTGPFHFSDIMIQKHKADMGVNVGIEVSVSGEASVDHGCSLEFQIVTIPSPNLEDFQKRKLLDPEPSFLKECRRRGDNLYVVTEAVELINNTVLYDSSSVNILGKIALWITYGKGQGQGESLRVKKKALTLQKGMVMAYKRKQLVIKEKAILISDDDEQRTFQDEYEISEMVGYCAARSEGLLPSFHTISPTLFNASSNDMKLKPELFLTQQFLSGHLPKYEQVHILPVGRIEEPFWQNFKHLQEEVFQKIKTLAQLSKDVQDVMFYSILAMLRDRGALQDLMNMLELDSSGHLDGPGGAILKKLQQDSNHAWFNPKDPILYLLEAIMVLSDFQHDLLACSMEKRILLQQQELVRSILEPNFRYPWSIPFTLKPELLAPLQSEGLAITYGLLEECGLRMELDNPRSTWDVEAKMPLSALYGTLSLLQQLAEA

With `O=C(Nc1cccc(-c2nn[nH]n2)c1)c1cc(-n2ccnn2)cc(C(F)(F)F)c1` the Kd was 4.16 ± 0.1 µM (Beta-lactamase CTX-M-27; surface plasmon resonance; 25 °C).
With `C[C@H](N)C(=O)N[C@@H](CCCNC(=N)N)C(=O)N[C@H](C(=O)N[C@@H](CCCCN)C(=O)N[C@@H](CCC(N)=O)C(=O)N[C@H](C(=O)N[C@@H](C)C(=O)N[C@@H](CCCNC(=N)N)C(=O)N[C@@H](CCCCN)C(=O)N[C@@H](CO)C(=O)N[C@H](C(=O)NCC(=O)O)[C@@H](C)O)[C@@H](C)O)[C@@H](C)OP(=O)(O)O` the Kd was 6.79 ± 0.67 µM (Baculoviral IAP repeat-containing protein 5.1-A (birc5.1-a, Xenopus laevis, UniProt Q8JGN5); ITC; pH 6.8, 25 °C).
For `CC[C@H](C)[C@H](NC(=O)CNC(=O)[C@H](CCSC)NC(=O)[C@H](CCC(N)=O)NC(=O)[C@H](C)NC(=O)[C@H](CCC(N)=O)NC(=O)[C@@H](NC(=O)[C@H](CC(C)C)NC(=O)[C@H](C)NC(=O)[C@H](CO)NC(=O)[C@H](CCSC)NC(=O)[C@H](CCC(=O)O)NC(=O)[C@H](CC(C)C)NC(=O)[C@H](Cc1ccc(O)cc1)NC(=O)[C@H](CO)NC(=O)[C@H](CCC(=O)O)NC(=O)[C@H](CCC(N)=O)NC(=O)[C@H](CCCNC(=N)N)NC(=O)[C@H](CCCCN)NC(=O)[C@H](CC(=O)O)NC(=O)[C@H](CC(C)C)NC(=O)[C@H](CC(N)=O)NC(=O)[C@H](Cc1ccccc1)NC(=O)[C@H](CCC(=O)O)NC(=O)[C@H](CCCCN)NC(=O)[C@@H](NC(=O)[C@H](CC(C)C)NC(=O)[C@H](CCC(=O)O)NC(=O)[C@H](CCC(=O)O)NC(=O)[C@@H](NC(=O)[C@@H](NC(=O)[C@H](CCCNC(=N)N)NC(=O)[C@H](CCCCN)NC(=O)[C@H](C)NC(=O)[C@H](Cc1ccccc1)NC(=O)[C@H](CCC(=O)O)NC(=O)[C@H](CCC(=O)O)NC(=O)[C@H](CC(C)C)NC(=O)[C@@H](N)CO)C(C)C)C(C)C)C(C)C)[C@@H](C)CC)C(=O)N[C@@H](CO)C(=O)N[C@@H](CCC(=O)O)C(=O)N[C@@H](CCCNC(=N)N)C(=O)N[C@H](C(=O)N[C@H](C(=O)N[C@@H](CCC(=O)O)C(=O)N[C@H](C(=O)N[C@H](C(=O)N[C@@H](CC(C)C)C(=O)N[C@@H](CCCNC(=N)N)C(=O)N[C@@H](Cc1c[nH]cn1)C(=O)N[C@@H](C)C(=O)N[C@@H](C)C(=O)N[C@@H](CCC(N)=O)C(=O)N[C@H](C(=O)N[C@@H](CC(C)C)C(=O)N[C@@H](CCCCN)C(=O)O)[C@@H](C)O)C(C)C)[C@@H](C)CC)[C@@H](C)CC)[C@@H](C)CC`, the Kd was roughly 0.22 µM (Gasdermin-C, N-terminal domain (GSDMC, Homo sapiens, UniProt Q9BYG8); microscale thermophoresis; native HEK293 cell lysate).
The Kd of `COC(=O)[C@H](Cc1ccccc1)NC(=O)[C@@H]1CCCN1C(=O)[C@H](Cc1c[nH]cn1)NC(=O)[C@H](C)NC(C)=O` is reported as 5.7 ± 2.89 µM (Peptidyl-prolyl cis-trans isomerase NIMA-interacting 4 (Homo sapiens, UniProt Q9Y237); binding, label-free Epic; PBS; pH 7.4, 0.5% DMSO).
`CSCC[C@H](NC(=O)[C@H](C)NC(=O)[C@H](CCCNC(=N)N)NC(=O)[C@H](Cc1ccc(O)cc1)NC(=O)[C@H](Cc1c[nH]c2ccccc12)NC(=O)[C@H](Cc1ccccc1)NC(=O)[C@H](CO)NC(=O)CNC(=O)CNC(=O)[C@H](CC(=O)O)NC(=O)[C@@H](N)CCC(=O)O)C(=O)N[C@@H](CCCCN)C(=O)N[C@@H](C)C(=O)N[C@@H](CC(C)C)C(=O)N[C@@H](Cc1ccc(O)cc1)C(=O)NCC(N)=O` has a Kd of 0.016 ± 0.007 µM (CIB1 (Homo sapiens, UniProt Q99828); peptide binding, inhibitor, TR-FRET competition; pH 7.5, 1 mM calcium, together with: 30 nM Alexa647-labelled peptide).
With `CC(C)[C@@H]1NC(=O)[C@H](CCC(N)=O)NC(=O)[C@@H](Cc2ccc(O)cc2)NC(=O)CSC[C@@H](C(N)=O)NC(=O)[C@H](CC(=O)O)NC(=O)[C@H](CCC(=O)O)NC(=O)[C@H](Cc2c[nH]c3ccccc23)NC(=O)[C@@H]2CCCN2C(=O)[C@H](CO)N(C)C(=O)[C@H](C)NC(=O)[C@H](Cc2c[nH]c3ccccc23)NC(=O)[C@H](Cc2c[nH]c3ccccc23)NC(=O)[C@H](C(C)C)NC(=O)[C@H]([C@@H](C)O)NC1=O` the Kd was 0.79 µM (2,3-bisphosphoglycerate-independent phosphoglycerate mutase (gpmI, Staphylococcus aureus, UniProt Q6GIL5); binding).
The Kd of `CC(C)[C@@H]1NC(=O)[C@H](Cc2ccccc2)NC(=O)CSC[C@@H](C(N)=O)NC(=O)[C@H](CCC(=O)O)NC(=O)[C@H](CO)NC(=O)[C@H](Cc2c[nH]c3cccc(Cl)c23)NC(=O)[C@H](C2CCCCC2)NC(=O)[C@H](C(C)C)NC(=O)[C@H](Cc2ccc(O)cc2)NC(=O)[C@H](CC(=O)O)NC(=O)[C@H](Cc2c[nH]c3ccccc23)NC(=O)[C@H](Cc2ccc(N)nc2)NC(=O)[C@H](Cc2c[nH]c3ccc(Cl)cc23)NC(=O)[C@H](CCC(=O)O)NC1=O` is reported as 0.00057 µM (Interleukin-1 receptor-like 2, D1-D2 domains (IL1RL2, Homo sapiens, UniProt Q9HB29); SPR; IL-36R D1-D2 domains).
The Kd of `N[C@@H](Cc1ccc(O)c(I)c1)C(=O)O` is reported as 0.25 ± 0.06 µM (Iodotyrosine deiodinase (IYD, Thermotoga neapolitana, UniProt B9K712, M41A); FMN fluorescence quenching; 25 °C, M41A variant).
For `C[C@H](NC(=O)[C@@H](N)Cc1ccc(O)cc1)C(=O)NCC(=O)N[C@@H](CO)C(=O)N[C@H](C(=O)N[C@@H](CC(=O)O)C(=O)N[C@@H](CCC(=O)O)C(=O)N[C@@H](CC(N)=O)C(=O)N[C@H](C(=O)N[C@@H](CC(=O)O)C(=O)N[C@@H](CO)C(=O)N[C@@H](CCC(=O)O)C(=O)O)[C@@H](C)OP(=O)(O)O)[C@@H](C)O`, the Kd was roughly 13.5 µM (Bifunctional polynucleotide phosphatase/kinase, FHA domain (Homo sapiens, UniProt Q96T60); binding, ITC; pH 7.5, 10 °C, PNK FHA domain).
For `N=C(N)Nc1ccc(-c2nc3ccc(-c4ccc5nc(-c6ccc(NC(=N)N)cc6)[nH]c5c4)cc3[nH]2)cc1`, the Kd was greater than 5 µM (AT-rich DNA hairpin; binding, microscale thermophoresis).
With `CC[C@H](C)[C@H](NC(=O)[C@H](C)NC(=O)[C@H](CC(=O)O)NC(=O)[C@H](CC(C)C)NC(=O)[C@H](CC(N)=O)NC(=O)[C@H](C)NC(C)=O)C(=O)N[C@H](C(=O)N[C@@H](CCCCN)C(=O)N[C@H](C(=O)N[C@@H](CCC(N)=O)C(=O)N[C@@H](C)C(=O)N[C@@H](Cc1c[nH]c2ccccc12)C(=O)N[C@@H](C)C(=O)N[C@@H](CCCNC(=N)N)C(=O)N[C@@H](CCSC)C(=O)N[C@@H](Cc1c[nH]c2ccccc12)C(=O)N[C@@H](C)C(=O)N[C@@H](C)C(=O)N[C@@H](CCCNC(=N)N)C(=O)N[C@@H](CCCNC(=N)N)C(=O)N[C@@H](CCC(N)=O)C(=O)N[C@@H](Cc1ccc(O)cc1)C(=O)N[C@@H](CC(C)C)C(N)=O)[C@@H](C)CC)[C@@H](C)CC` the Kd was 76 ± 18 µM (Calmodulin-1 (CALM1, Homo sapiens, UniProt P0DP23); binding, native gel titration; 1 h, 22 °C, together with: Ca2+, calmodulin 35 µM).
For `CC(C)C[C@H](NC(=O)CNC(=O)[C@@H](NC(=O)[C@H](CO)NC(=O)[C@H](CCCCN)NC(=O)[C@H](CC(C)C)NC(=O)C1(NC(=O)[C@H](CCC(=O)O)NC(=O)[C@H](CC(C)C)NC(=O)[C@@H](N)C(C)C)CC(C)(C)N([O])C(C)(C)C1)C(C)C)C(=O)N[C@@H](Cc1ccccc1)C(=O)O`, the Kd was 10 µM (Rhodopsin (RHO, Bos taurus, UniProt P02699)).
`CC(C)C[C@H](NC(=O)[C@H](CCC(N)=O)NC(=O)[C@@H]1CSSC[C@@H]2NC(=O)[C@H](CC(N)=O)NC(=O)[C@@H](N)CSSC[C@H](NC(=O)[C@H](Cc3ccccc3)NC(=O)[C@H](C)NC(=O)[C@H]([C@@H](C)O)NC(=O)[C@H](CCC(=O)O)NC(=O)[C@@H]3CCCN3C(=O)[C@H](C)NC(=O)[C@H](CCCCN)NC2=O)C(=O)N[C@@H](C)C(=O)N[C@@H](Cc2ccc(O)cc2)C(=O)N[C@@H](Cc2c[nH]c3ccccc23)C(=O)N1)C(=O)N[C@@H](Cc1c[nH]cn1)C(N)=O` gave a Kd of 0.252 ± 0.023 µM (Protein Mdm4, residues 24-108 (MDM4, Homo sapiens, UniProt O15151); binding, SPR competition; synthetic MDMX 24-108, together with: immobilized p53 peptide 15-29).
With `O=C(Nc1cccc(-c2nn[nH]n2)c1)c1cc(-c2ccncc2)cc(C(F)(F)F)c1` the Kd was 5.9 ± 0.13 µM (Beta-lactamase CTX-M-27; surface plasmon resonance; 25 °C).
With `CN1C(=O)C2(Cc3ccc(CC45SSC(CO)(C(=O)N4C)N(C)C5=O)cc3)SSC1(CO)C(=O)N2C` (racemic) the Kd was 1.9 µM (Histone acetyltransferase p300, CH1 domain (EP300, Homo sapiens, UniProt Q09472); surface plasmon resonance; DTT 500 µM).
The Kd of `N=C(N)NCCC[C@H](NC(=O)[C@H](Cc1ccccc1)NC(=O)[C@@H]1CCCN1C(=O)[C@H](CO)NC(=O)[C@H](Cc1ccccc1)NC(=O)CNC(=O)[C@@H]1CCCN1C(=O)[C@@H]1CCCN1C(=O)[C@@H](N)CCCNC(=N)N)C(=O)N[C@@H](CCCCNS(=O)(=O)c1ccc(C2=c3cc4c5c(c3Oc3c2cc2c6c3CCCN6CCC2)CCC[N+]=5CCC4)c(S(=O)(=O)[O-])c1)C(=O)O` is reported as 22.9 ± 0.5 µM (Oligopeptide-binding protein OppA (oppA, Lactococcus lactis subsp. lactis, UniProt Q07741); binding, fluorescence anisotropy; pH 7, 37 °C, together with: dye-labelled peptide).

Repeated from above:
With `O=C(Nc1cccc(-c2nn[nH]n2)c1)c1cc(-c2ccncc2)cc(C(F)(F)F)c1` the Kd was 5.9 ± 0.13 µM (Beta-lactamase CTX-M-27; surface plasmon resonance; 25 °C).
